Published values collected from several papers.
Every numbered part comes from another study and shows a few of its results, in no order. Substitutions count along the parent as printed.

Study 1 — target: CCNB3, cyclin fold, Cln2 fusion (human); technique: yeast growth competition, sequencing; sample: yeast; notes: weak parent motif; relative to: not given; reading: higher = stronger binding
Starting sequence: PKN2 docking peptide (human); VSAVQKLDFSDTM; partner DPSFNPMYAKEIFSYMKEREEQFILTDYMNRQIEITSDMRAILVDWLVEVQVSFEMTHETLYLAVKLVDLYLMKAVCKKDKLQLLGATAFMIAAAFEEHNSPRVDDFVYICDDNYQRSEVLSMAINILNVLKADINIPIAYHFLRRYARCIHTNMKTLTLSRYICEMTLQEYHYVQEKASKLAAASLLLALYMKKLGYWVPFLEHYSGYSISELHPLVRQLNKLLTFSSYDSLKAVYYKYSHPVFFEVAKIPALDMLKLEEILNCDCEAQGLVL
Under “normalised enrichment score”, `S10M` is recorded as 0.366.
`L7V` — result for “normalised enrichment score”: 0.318.
For `S2I`, “normalised enrichment score” read 0.18.
For `L7A`, “normalised enrichment score” read 0.0103.
Under “normalised enrichment score”, `F9V` is recorded as 0.0236.
For `D8I`, “normalised enrichment score” read 0.635.

Study 2 — technique: RNA Bind-n-Seq; form: RNA; sample: in vitro; tested at: 365 nM; relative to: no-protein control; reading: higher = stronger binding
Target: RNA binding protein fox-1 homolog 2, RRM domain, GST-SBP tag (RBFOX2, Homo sapiens, UniProt O43251-10, residues 100-194)
Notes: natural RNA segment, single round, ends assumed
Residues (chain): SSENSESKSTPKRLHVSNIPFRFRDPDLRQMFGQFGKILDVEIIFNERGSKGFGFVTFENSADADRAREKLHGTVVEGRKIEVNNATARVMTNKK
`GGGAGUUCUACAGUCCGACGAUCCGGCGAUUCUAAUGGGAUUGACUGACUGGAGACCUCACAUCAUGUUCACAUUUAACCUUAAACACCUAUGCAGUCAUGUUGGGGGAGUGUCCCAAUGUUACCUCAACACCUGGAAUUCUCGGGUGCCAA`: “RBNS enrichment (R)” 0.416.
Under “RBNS enrichment (R)”, `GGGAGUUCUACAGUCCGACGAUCUGUCCUUCCCCCUUCUCUGCUUUGCAGUCCCCAUGGACUCUGGGCAUGGUGCACUGUCGUCUUUGCUCUUCAUUGAGGAUCUUCCACCCACCAUGGUCCCCUCAGUUGCAUGGAAUUCUCGGGUGCCAA` is recorded as 2.27.
`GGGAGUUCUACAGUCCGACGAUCUUUGUUACUUCGUGUAUUUGAGUUACUUUCUAUUUUCCACUUUGUAUGUCAUCCACUGCUUGGGGAAUUUUCCUCAGGUACCUACACACCCUGAUAUUUGAAACCAAAACUGGAAUUCUCGGGUGCCAA` — result for “RBNS enrichment (R)”: 0.647.
For `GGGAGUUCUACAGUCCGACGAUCACUGAAGACUGGCUGGAGGCACUGCAGAAGCAGCCCUUGGCUUUCUACUCCCACACUUGCUUGUGAAACGUGUACCAGCUACCUAAGGAGGGCCAAGGCAGGAAGGGCCAUGGAAUUCUCGGGUGCCAA`, “RBNS enrichment (R)” read 1.16.
For `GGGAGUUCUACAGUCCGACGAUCUAGUGUUACACUGGUUCUGGAGUGUCUCUGCGGUACAAAGAUGCACUUUUCUUCAUGGGGCAAAGUCUGCCUCUUCUGCCAGGCAGUUCCCAUUUGCCCCUGUCCAGACUUGGAAUUCUCGGGUGCCAA`, “RBNS enrichment (R)” read 0.221.
`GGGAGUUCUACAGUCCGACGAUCUUAAGUGCAUUGGACUCCAGGAGAGCCAUUUGGGGUUUCUCUAGCUAAACAAUAAAUGUACCUGUCUCAGUCCGCUGGACUGAGUUGUUUUGAAGGUUCUCAUGGUGCACUGGAAUUCUCGGGUGCCAA` — result for “RBNS enrichment (R)”: 0.288.
Under “RBNS enrichment (R)”, `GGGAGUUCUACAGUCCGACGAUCUUUGUUUUGUUUUGUUUAAUAAGGUCCCAUGGCUUCUUUGGGAAUCCACGAUAAGAAAAACAACCCCACCAAUCAGAUAGCGGAGCCUGUUAUUUGAAGCUGCAGAGCCAUGGAAUUCUCGGGUGCCAA` is recorded as 0.45.
`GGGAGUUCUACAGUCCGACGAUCAAAGCUUAUAUAUUUGUAGCAAAGUUAUUCUUAAAUAUGAAUUAUGUUAUAACUUAGUGACUUUUGAUUUCUAGAGGUGUAAAUGAGGAUGUAAAAAUUGAUAUAGUUGUUGGAAUUCUCGGGUGCCAA`: “RBNS enrichment (R)” 0.806.
For `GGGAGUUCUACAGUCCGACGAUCCACGUGGGCUGAGCUGACUUGAUGCUCCUAUGGGUGGUGCCCGGCCCCCACGGGGGUUCACUAGGUUUGGGCCUGAGAACACCUGUCUGGACAAAGGUGAUGAAACCAAGUGGAAUUCUCGGGUGCCAA`, “RBNS enrichment (R)” read 0.867.
`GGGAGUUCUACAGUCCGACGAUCCUAUCAUGUGCAUAGGCAGAAGCUGCUGGUAGAGGGAGUGGUGGCUUUCUAGUGCCCAUCUUGGCUCUCCAGCUGCAAGUUGCACAGCCAUAACCUAAGACUUUAAAAUAUGGAAUUCUCGGGUGCCAA`: “RBNS enrichment (R)” 0.229.

Study 3 — technique: protein binding microarray; form: double-stranded DNA, one strand shown; sample: in vitro; tested at: not given; relative to: not given; reading: higher = stronger binding
Target: Histone acetyltransferase KAT6A, winged helix 1, GST fusion (KAT6A, Homo sapiens, UniProt Q92794, residues 1-85)
Notes: 8-mer, flanks averaged, mean of 2 arrays, mostly near background
Residues (chain): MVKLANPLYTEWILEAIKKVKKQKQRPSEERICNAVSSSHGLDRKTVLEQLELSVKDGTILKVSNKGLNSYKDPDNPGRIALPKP
With `AGGTCATC` the E-score was 0.0874.
`CAAAATTA` has an E-score of 0.0158.
For `GCGTGCAC`, the E-score was 0.0697.
With `CGCGACTC` the E-score was 0.177.
The E-score of `AACCTCGA` is reported as -0.121.
`CGGTCTGC` has an E-score of 0.261.

Mixed results
The fold induction of `PhoQ, residues 284 288 289 292 302 303 AGCYAI` is reported as 0.738 (PhoP, residues 12 14 15 18 19 SMASL (Escherichia coli, UniProt P23836); Sort-seq, item: YFP reporter; E. coli; PhoQ-PhoP variant library, added: 10 µM Mg2+; relative to: high Mg2+ state, higher = stronger signaling).

Some of these lines once more (study 3):
For `GCGTGCAC`, the E-score was 0.0697.
With `CGCGACTC` the E-score was 0.177.
